Experimental data pooled from the literature.
Compare with care: the assays were run in different laboratories.
CNR1: Cannabinoid receptor 1 (CNR1, Homo sapiens, UniProt P21554)
UniProt P21554, sequence (whole entry, unmodified, looked up): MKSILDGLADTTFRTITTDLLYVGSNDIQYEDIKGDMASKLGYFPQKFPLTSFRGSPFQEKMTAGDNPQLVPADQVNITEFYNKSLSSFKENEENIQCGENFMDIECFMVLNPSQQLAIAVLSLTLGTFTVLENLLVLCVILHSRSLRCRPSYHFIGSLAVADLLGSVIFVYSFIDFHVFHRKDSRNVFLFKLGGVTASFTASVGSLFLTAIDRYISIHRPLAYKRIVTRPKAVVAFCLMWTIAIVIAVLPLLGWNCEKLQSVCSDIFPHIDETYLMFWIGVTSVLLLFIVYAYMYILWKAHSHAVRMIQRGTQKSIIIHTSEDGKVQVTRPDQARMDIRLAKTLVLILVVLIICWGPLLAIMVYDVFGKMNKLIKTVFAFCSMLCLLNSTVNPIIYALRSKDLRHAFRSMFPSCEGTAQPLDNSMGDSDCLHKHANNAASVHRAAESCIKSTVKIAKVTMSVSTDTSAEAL
CNR1 L359V: Cannabinoid receptor 1 (CNR1, Homo sapiens, UniProt P21554, L359V)

SMILES | target | test | setting | endpoint | result
O=C(c1ccc2c(c1)c1ccccc1n2CC1CCOCC1)c1cccc2ccccc12 | CNR1 | cAMP, agonist, BRET |  | EC50 | 7.59 nM
CCOC(=O)[C@](CC)(CCCSCCOCCOCCNC(=O)c1ccc(-c2c3ccc(=N)c(S(=O)(=O)O)c-3oc3c(S(=O)(=O)O)c(N)ccc23)c(C(=O)O)c1)NC(=O)c1ccc(C2CC2)c(Cc2ccc(F)cc2)n1 | CNR1 | cAMP, agonist |  | EC50 | 86 nM
CCCCC/C=C\C/C=C\C/C=C\C/C=C\CCCC(=O)NCc1ccc(O)c(OC)c1 | CNR1 | ligand displacement in cells, radioligand |  | Ki | 39.5 nM
CCOC(=O)[C@](CC)(CCCSCCOCCOCCNc1ccc([N+](=O)[O-])c2nonc12)NC(=O)c1ccc(C2CC2)c(Cc2ccc(F)cc2)n1 | CNR1 | cAMP, agonist |  | EC50 | > 10000 nM
O=C(c1ccc2c(c1)c1ccccc1n2CCN1CCCCC1)c1cccc2ccccc12 | CNR1 | cAMP, agonist, BRET |  | EC50 | 110 nM
CCCCCn1cc(C(=O)c2ccc(OC)cc2)c2ccccc21 | CNR1 | ligand displacement, radioligand | cell membranes | IC50 | 15000 nM
O=C(c1ccc2c(c1)c1ccccc1n2CCN1CCOCC1)c1cccc2ccccc12 | CNR1 | cAMP, agonist, BRET |  | EC50 | 25.7 nM
CCCCCn1cc(C(=O)c2ccc(CC)c3ccccc23)c2ccccc21 | CNR1 | ligand displacement, radioligand | cell membranes | IC50 | 58 nM
CC(=O)OCCCCCn1c2ccccc2c2cc(C(=O)c3cccc4ccccc34)ccc21 | CNR1 | GTPγS binding, agonist, radiometric | cell membranes | EC50 | 55 nM
CCCCCn1cc(C(=O)c2ccc(CC)c3ccccc23)c2ccccc21 | CNR1 | ligand displacement in cells, radioligand |  | Ki | 64.4 nM
CC1=C[C@H]2c3c(O)cc(CCc4ccccc4)cc3OC(C)(C)[C@@H]2CC1 | CNR1 | GTPγS binding, agonist, radiometric | cell membranes | EC50 | 171 nM
O=C(NC12CC3CC(CC(C3)C1)C2)c1nn(CCCCCF)c2ccccc12 | CNR1 | ligand displacement in cells, radioligand |  | Ki | 3.1 nM
CCCCCn1cc(C(=O)c2cccc3ccccc23)c2ccccc21 | CNR1 L359V | G protein activation, agonist, BRET |  | EC50 | 19.5 nM
COCCn1c(C)c(C)s/c1=N\C(=O)C1C(C)(C)C1(C)C | CNR1 |  |  | Ki | 114 nM
CCCCCCn1c2ccccc2c2cc(C(=O)c3cccc4ccccc34)ccc21 | CNR1 | cAMP, agonist, BRET |  | EC50 | 339 nM
CCCCCn1cc(C(=O)c2cccc3c2CC(C)(C)C3)c2ccccc21 | CNR1 (Homo sapiens, UniProt P21554, L193I) | G protein activation, agonist, BRET |  | EC50 | 43.7 nM
CCCCn1c2ccccc2c2cc(C(=O)c3cccc4ccccc34)ccc21 | CNR1 | cAMP, agonist, BRET |  | EC50 | 129 nM
CCCCCn1cc(C(=O)c2ccc3c(c2)CC(C)(C)C3)c2ccccc21 | CNR1 L359V | G protein activation, agonist, BRET |  | EC50 | 537 nM

Some of these lines once more:
SMILES | target | test | setting | endpoint | result
CCCCCn1cc(C(=O)c2ccc(OC)cc2)c2ccccc21 | CNR1 | ligand displacement, radioligand | cell membranes | IC50 | 15000 nM
CCCCCn1cc(C(=O)c2ccc(CC)c3ccccc23)c2ccccc21 | CNR1 | ligand displacement in cells, radioligand |  | Ki | 64.4 nM
